Experimental data gathered from unrelated publications.
Each line is one published result; not all experiments were run side by side. Several values in a cell are separate wells, animals, samples, runs or records.

Structure (SMILES) | test | test system | conditions | how to read | quantity | value
C=CCN1CCC23c4c5ccc(OC(=O)c6ccc(N)cc6)c4OC2C(=O)CCC3(O)C1C5 (stereo not drawn) |  | rat plasma | 0.5 h, together with: loperamide 100 µM |  | remaining compound | 77.6% and 78% and 75%
CC(C)[C@@H]1NC(=O)CNC(=O)[C@H](CC(N)=O)NC(=O)[C@H](CCCNC(=N)N)NC(=O)[C@H](Cc2ccc(O)cc2)NC(=O)[C@H](C(C)C)NC(=O)[C@@H](NC(=O)[C@@H](NC(=O)[C@H](CC(N)=O)NC(=O)[C@H](Cc2c[nH]c3ccccc23)NC(=O)[C@H](C)NC(=O)[C@H](Cc2ccccc2)NC(=O)CNC(=O)[C@H](CCCCN)NC(=O)[C@H](Cc2ccccc2)NC(=O)[C@H](Cc2ccccc2)NC(=O)[C@H](CCCCN)NC(=O)OCC2c3ccccc3-c3ccccc32)C(C)C)CSSC[C@@H](C(=O)N[C@@H](Cc2c[nH]cn2)C(=O)N[C@@H](CCCNC(=N)N)C(=O)N[C@@H](CCCNC(=N)N)C(=O)N[C@@H](C)C(=O)N[C@@H](CC(N)=O)C(N)=O)NC(=O)[C@H](C(C)C)NC(=O)[C@H](CCCNC(=N)N)NC1=O | HPLC | mouse mammary gland homogenate | 2560 µM, 12.00 h, 37 °C, 50 mg/mL tissue |  | remaining peptide | 61.8% and 55.6% and 60.5%
C=CCN1CCC23c4c5ccc(OC(=O)c6ccc(NC(=O)OC(C)(C)C)cc6)c4OC2C(=O)CCC3(O)C1C5 (stereo not drawn) |  | rat plasma | 0.5 h, no inhibitor |  | remaining compound | 1.3%
C#Cc1c(F)ccc2cc(O)cc(-c3ncc4c(N5CC6CCC(C5)N6C(=O)OC(C)OC(=O)C(C)C)nc(OC[C@@]56CCCN5C[C@H](F)C6)nc4c3F)c12 (stereo partly drawn) |  | simulated gastric fluid | 1 µM, 30 min, 37 °C |  | remaining prodrug | 97.6%
Cc1nnc(-c2ccc(CC(=O)NCCCC[C@H](NC(=O)c3ccc(OCc4ccc(B(O)O)cc4)c(-c4nc5ccccc5c(=O)[nH]4)c3)C(=O)NCC(=O)NCC(=O)NCC(=O)N[C@@H](Cc3ccccc3)C(=O)N[C@@H](Cc3ccccc3)C(=O)O)cc2)nn1 | UPLC-MS/MS | human serum | 100 µM, 2 h, 37 °C |  | remaining compound | 84.7%
C#Cc1c(F)ccc2cc(O)cc(-c3ncc4c(N5CC6CCC(C5)N6C(=O)OC(CC)OC(=O)CCC)nc(OC[C@@]56CCCN5C[C@H](F)C6)nc4c3F)c12 (stereo partly drawn) |  | simulated gastric fluid | 1 µM, 30 min, 37 °C |  | remaining prodrug | 94.4%
CSCC[C@H](NC(=O)[C@H](CCCNC(=N)N)NC(=O)[C@H](CCCNC(=N)N)NC(=O)[C@H](CCCCN)NC(=O)[C@H](C)NC(=O)[C@H](CCCNC(=N)N)NC(=O)CNC(=O)[C@@H](N)[C@@H](C)O)C(=O)N[C@@H](CCC(N)=O)C(=O)N[C@@H](Cc1ccc(O)cc1)C(=O)N[C@@H](CC(N)=O)C(=O)N[C@@H](CCCNC(=N)N)C(=O)N[C@@H](CCCNC(=N)N)C(N)=O | HPLC peak area | 50% human serum | 100 µM, 12 h, pH 7.4, 37 °C | relative to: 0 h | remaining peptide | 6.45% and 8.76% and 9.96%
C[C@H](NC(=O)CNC(=O)[C@@H]1CCCN1C(=O)[C@H](CO)NC(=O)CNC(=O)[C@H](CO)NC(=O)[C@H](C)NC(=O)[C@H](CC(N)=O)NC(=O)[C@H](C)NC(=O)[C@H](CO)NC(=O)[C@H](C)NC(=O)[C@H](CO)NC(=O)[C@@H]1CCCN1C(=O)[C@H](Cc1ccccc1)NC(=O)[C@H](C)NC(=O)[C@H](CO)NC(=O)[C@@H]1CCCN1C(=O)[C@H](Cc1ccccc1)NC(=O)[C@@H](NC(=O)[C@H](CC(=O)O)NC(=O)[C@@H](N)CO)[C@@H](C)O)C(=O)N[C@@H](CCCNC(=N)N)C(=O)N[C@@H](CO)C(=O)O |  | 50% mouse plasma | 80 min |  | remaining peptide | 1.03%
CC[C@H](C)[C@H](NC(=O)[C@@H](NC(=O)[C@H](CCCCN)NC(=O)[C@@H](N)[C@@H](C)O)C(C)C)C(=O)N[C@@H](CC(C)C)C(=O)N[C@@H](Cc1c[nH]cn1)C(N)=O | LC-MS | pronase digest | 200 µM, 1 h, pH 7.5, 37 °C, together with: pronase 2.5 µg/mL |  | remaining intact peptide | 21%
